# Assay results gathered from unrelated publications.
# Every numbered part comes from another study and shows a few of its results, in no order. Substitutions count along the parent as printed.

# Set 1
# Target: ABI1, truncated, D143A, DHFR fusion (Arabidopsis thaliana)
# Method: DHFR PCA, deep sequencing
# Medium: yeast
# Setting: methotrexate growth selection, single substitutions
# Together with: (+)-ABA 1.4 µM
# Baseline: wild-type fitted maximum
# Reading: higher = stronger binding
# Parent: PYL1, truncated, DHFR fusion (Arabidopsis thaliana); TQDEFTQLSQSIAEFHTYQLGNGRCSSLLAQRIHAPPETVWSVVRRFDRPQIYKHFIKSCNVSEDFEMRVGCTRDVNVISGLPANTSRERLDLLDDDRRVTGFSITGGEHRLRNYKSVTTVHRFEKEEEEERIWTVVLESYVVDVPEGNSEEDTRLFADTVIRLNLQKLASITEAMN; partner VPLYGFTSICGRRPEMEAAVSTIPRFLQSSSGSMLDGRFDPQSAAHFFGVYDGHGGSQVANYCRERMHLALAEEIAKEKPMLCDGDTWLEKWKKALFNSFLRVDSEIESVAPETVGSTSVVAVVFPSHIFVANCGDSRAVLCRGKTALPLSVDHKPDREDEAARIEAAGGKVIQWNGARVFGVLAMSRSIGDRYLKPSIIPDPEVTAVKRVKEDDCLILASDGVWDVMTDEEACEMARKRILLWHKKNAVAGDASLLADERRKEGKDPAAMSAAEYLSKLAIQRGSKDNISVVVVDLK
Change,relative binding score [%]
T39Y,20.6
R69S,43.7
E139T,74.2
T160G,0.133
S9L,42.4
Q19F,20.3
R32D,-3.87
E147P,48.8
L138K,-9.79
Y53N,-4.22
E128L,45.1
Q31K,42.5
I105F,-6.79
W134N,40.7
E64R,47.9
R123P,59.1
T101W,-10.6
D159S,-4.89
L169M,-2.84
V143H,-0.695

# Set 2
# Target: RNA binding protein fox-1 homolog 2, RRM domain, GST-SBP tag (RBFOX2, Homo sapiens, UniProt O43251-10, residues 100-194)
# Method: RNA Bind-n-Seq
# Form: RNA
# Medium: in vitro
# Tested at: 365 nM
# Setting: natural RNA segment, single round, ends assumed
# Baseline: no-protein control
# Reading: higher = stronger binding
# Target sequence (chain): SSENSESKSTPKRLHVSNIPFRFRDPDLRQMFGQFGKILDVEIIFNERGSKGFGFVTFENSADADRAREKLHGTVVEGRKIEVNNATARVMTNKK
Strand,RBNS enrichment (R)
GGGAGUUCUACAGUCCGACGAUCAAAUAUUGUACCUUGUUUAGCCUACCUCACAGGGCUGUUGUGAGGAGUGUAGUGAAACGGACUCUCAUGUGAACUGGGUGGUUUCCACUAAGAAUGGUUGUGUUUGGAUAUGGAAUUCUCGGGUGCCAA,2.48
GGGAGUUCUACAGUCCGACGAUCCGCCGCCCUGCGGUUGGGCCGGUGGAGGCCCAGGCGUUGCUAGGAUUGCAUCAGUUUUCCUGUUUGCACUAUUUCUUUUUGUAACAUUGGCCCUGUGUGAAGUAUUUCGAUGGAAUUCUCGGGUGCCAA,0.685
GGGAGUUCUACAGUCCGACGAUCGUUAUUAUUUGUUUCUGUUGUUUACUCUUUAAUCGUAAGUACUUUUAAACCACGACCCAGGUCCUUGGUUCACAUGGAAUAAUAAAGAUGUGUUUUUAGAUGGCACAUUGUGGAAUUCUCGGGUGCCAA,0.574
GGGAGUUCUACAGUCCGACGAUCCCCACCACAGGCAUAAGCUAUCACCUAGCAGCCUCAAAACGGGUCAGUAUUAAGGUUUUCAACCGGAAGGAGGCCAACCAGCCCGACAGUGCCAUCCCCACCUUCACCUCUGGAAUUCUCGGGUGCCAA,0.235
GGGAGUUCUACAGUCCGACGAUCGGUAGAGGGGGAAAAAAAGUAGUGCCAUGGGGCCACGGGGCCCAGCUUAUUCCGUGUAGAUGCUUGUUUUUGUCCCUGCCUCCGAGGAACUUGUUCAUGAUUGUGCUCUGUGGAAUUCUCGGGUGCCAA,4.31
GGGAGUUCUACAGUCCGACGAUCCGCUGAUGCCAGACCUUCUCCCGCUGCCAGGAAGCUGUUGUCGACUCCAGACCUGGUUGAGGGAGUAUAGAUUGGGUCUAGCUUGCUUCAGUGUACAGAAACCUCCUCUGUGGAAUUCUCGGGUGCCAA,0.575
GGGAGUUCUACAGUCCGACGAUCCCAUUAAUGAUUCAUCCGCACCAAUGAAGAAGUUGUAACUAACUAGCAUGCUGCGCAGACACUGGCAUAGCAUGCCCUGGGUACACUAACACUCACCUGCUCCCUUUCGUUGGAAUUCUCGGGUGCCAA,0.709
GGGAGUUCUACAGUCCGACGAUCAAACUCAACUUCCUAACUGUGUUAACUUAAUUUUAUUAGAACACUACAGUUGAGUGAGAACGUGCAGAAGAUGUCAACAGAAGAGAAUGUUGUGCUAAGAUAAUGGCCUCUGGAAUUCUCGGGUGCCAA,0.374
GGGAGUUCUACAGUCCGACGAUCGCAGGGGCCUUGGGGCUCCUGGAAGCCGUGAGGUUUCUGUUUAGGCCUUAACCGAAGGCAACCUCUGCUCCAGAUGGAUGGUACCAGUAGCUUCUUAAUUCCAAUACUAAUGGAAUUCUCGGGUGCCAA,0.238
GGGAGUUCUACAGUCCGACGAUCCCGUGCUGCUGUGUUCUGCUCCUCCCCACGCUUCCCUGCUAUAGUUCCCAGCUGCUGUAACGGAGCCACCUCCAACUCUAACAAUAAACCAAGUUCAUUGCAGAUAGUGUUGGAAUUCUCGGGUGCCAA,0.373
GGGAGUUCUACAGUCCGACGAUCAAAGUGCCCAAGCUGCUGACGCAAACAACAACAAAUGCUGCUUAUUUGCAUGCCGACUUACAUAUAUUUGCAUGUUCGUUGACUAUCAAAGAGUGCAGAGCUCUCCCCAGUGGAAUUCUCGGGUGCCAA,0.463
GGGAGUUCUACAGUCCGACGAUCGCUGUCAUUGCUAGUCGUGCUCUAGCAUACAACCCUGAAACCAUCCUAGGUGACAUUUUAGAAUUAAUACUUAAGUGUUGUUAAAUGGGGACAUGGAGCUUAAUCAUUGGUGGAAUUCUCGGGUGCCAA,0.272

# Set 3
# Target: Sal-like protein 4, full length isoform A (SALL4, Homo sapiens, UniProt Q9UJQ4, residues 1-1053)
# Sequence of UniProt Q9UJQ4 (whole entry, looked up): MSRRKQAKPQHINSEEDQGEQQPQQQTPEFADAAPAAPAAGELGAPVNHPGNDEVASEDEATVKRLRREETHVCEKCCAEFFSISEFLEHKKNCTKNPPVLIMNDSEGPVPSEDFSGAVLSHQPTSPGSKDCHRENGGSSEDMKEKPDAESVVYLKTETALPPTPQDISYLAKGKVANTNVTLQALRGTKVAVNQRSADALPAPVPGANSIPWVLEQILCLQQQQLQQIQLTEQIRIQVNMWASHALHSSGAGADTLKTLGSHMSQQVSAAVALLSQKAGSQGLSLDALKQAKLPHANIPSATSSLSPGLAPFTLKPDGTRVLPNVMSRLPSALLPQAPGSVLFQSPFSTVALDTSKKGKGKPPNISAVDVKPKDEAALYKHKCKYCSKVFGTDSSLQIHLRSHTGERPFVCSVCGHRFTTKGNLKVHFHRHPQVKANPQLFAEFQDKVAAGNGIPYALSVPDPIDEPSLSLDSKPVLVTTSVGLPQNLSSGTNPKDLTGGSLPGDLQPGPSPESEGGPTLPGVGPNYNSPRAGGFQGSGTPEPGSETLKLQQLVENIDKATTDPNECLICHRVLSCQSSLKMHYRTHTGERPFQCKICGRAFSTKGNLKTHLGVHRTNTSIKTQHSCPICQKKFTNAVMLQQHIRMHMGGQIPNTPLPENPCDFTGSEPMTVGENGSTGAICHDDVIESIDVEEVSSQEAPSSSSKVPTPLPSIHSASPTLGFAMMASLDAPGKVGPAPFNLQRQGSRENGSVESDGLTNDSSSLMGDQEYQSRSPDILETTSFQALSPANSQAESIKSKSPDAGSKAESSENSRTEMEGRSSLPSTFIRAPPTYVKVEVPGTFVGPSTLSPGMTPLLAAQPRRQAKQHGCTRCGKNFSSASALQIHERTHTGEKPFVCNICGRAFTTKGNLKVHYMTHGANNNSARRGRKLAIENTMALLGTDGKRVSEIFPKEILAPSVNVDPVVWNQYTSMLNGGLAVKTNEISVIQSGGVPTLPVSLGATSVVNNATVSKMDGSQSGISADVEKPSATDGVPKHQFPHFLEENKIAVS
# Method: universal PBM
# Form: double-stranded DNA, one strand shown
# Medium: in vitro
# Tested at: 600 nM
# Setting: 8-mer, flanks averaged, mean of replicates
# Reading: higher = stronger binding
Strand,E-score
AACCACGA,-0.00549
GTGGTAAC,0.0935
AAGACCGC,-0.0871
GACTAACC,-0.191
CCATCGGA,-0.269
AACATGTC,0.0444
CTTCACCA,-0.117
CATGGTTA,0.219
AAAGAAAA,0.263
ACGTCTCT,-0.106
CCGGAATC,-0.185
GGGCGTGA,-0.22
TAGGGAGA,0.0185
GTGTTGTA,0.129
AGGAGACC,-0.267
AAAGTCAA,0.0882
AGCTGAGA,-0.126

# Set 4
# Target: CEP164, C-terminal peptide (human)
# Method: DHFR complementation, deep sequencing
# Medium: yeast
# Setting: single substitutions, model-inferred values
# Baseline: wild type
# Reading: higher = weaker binding
# Parent: PDZK1, PDZ domain 2 (human); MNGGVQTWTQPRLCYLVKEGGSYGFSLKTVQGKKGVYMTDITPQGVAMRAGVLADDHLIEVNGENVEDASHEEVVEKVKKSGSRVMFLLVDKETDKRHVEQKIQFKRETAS; partner HNRVKVYRF
Change,binding free energy change [kcal/mol]
V99M,-0.126
K96E,-0.0695
I41N,1.77
E100T,-0.15
K96H,-0.00651
L88D,2.2
V36I,-0.0107
N62W,0.578
V66D,1.38
R84S,0.00634
E100S,-0.117
N65T,0.424
V52W,0.338
T94V,0.108
A47H,0.975
Y37W,0.314

# Set 5
# Target: CCNE2, cyclin fold, Cln2 fusion (human)
# Method: yeast growth competition, sequencing
# Medium: yeast
# Setting: strong parent motif
# Baseline: not given
# Reading: higher = stronger binding
# Parent: E2F1 docking peptide (human); PPVKRRLDLETDH
Change,normalised enrichment score
PPVKRKLDLETDH [R6K],0.574
PPVERRLDLETDH [K4E],-0.0844
PPVKRRLDLFTDH [E10F],1.01
PPQKRRLDLETDH [V3Q],0.816
PPVKRSLDLETDH [R6S],-0.0813
PPVKRRLDLEGDH [T11G],1.15
PPVKRRLWLETDH [D8W],3.5
PPVKRRLDLECDH [T11C],1.42
PPVVRRLDLETDH [K4V],1.62
PPVKRRLDLETGH [D12G],1.57
PPVKRRLDFETDH [L9F],5.76
PPVMRRLDLETDH [K4M],1.67
PPVKIRLDLETDH [R5I],-0.459
PPVKRRGDLETDH [L7G],0.0376
PPVKRRLDLLTDH [E10L],1.08
PPVKRRRDLETDH [L7R],0.318
PPVKRRLDLEWDH [T11W],2.92
PPVKRDLDLETDH [R6D],-0.315

# Other studies, line by line
Substance,target,assay,system,conditions,scale,endpoint,result
"PhoQ, residues 284 288 289 292 302 303 SNGLAW","PhoP, residues 12 14 15 18 19 NQFFI (Escherichia coli, UniProt P23836)","Sort-seq, refers to: YFP reporter",E. coli,"PhoQ-PhoP variant library, together with: 10 µM Mg2+","baseline: high Mg2+ state, higher = stronger signaling",fold induction,18.6

# Some of these lines once more (set 5):
Change,normalised enrichment score
PPVERRLDLETDH [K4E],-0.0844
PPVKRRLDLFTDH [E10F],1.01
PPQKRRLDLETDH [V3Q],0.816
PPVKRSLDLETDH [R6S],-0.0813
PPVKRRLDLEGDH [T11G],1.15
PPVKRRLWLETDH [D8W],3.5
PPVKRRLDLECDH [T11C],1.42
PPVVRRLDLETDH [K4V],1.62
PPVKRRLDLETGH [D12G],1.57
PPVKRRLDFETDH [L9F],5.76
PPVMRRLDLETDH [K4M],1.67
PPVKIRLDLETDH [R5I],-0.459
PPVKRRGDLETDH [L7G],0.0376
